Published values from different studies.
Every numbered part comes from another study and shows a few of its results, in no order.

Set 1
Target: Ras GTPase-activating protein-binding protein 1, full length (G3BP1, Homo sapiens, UniProt Q13283)
Chain of UniProt Q13283 (whole entry, looked up): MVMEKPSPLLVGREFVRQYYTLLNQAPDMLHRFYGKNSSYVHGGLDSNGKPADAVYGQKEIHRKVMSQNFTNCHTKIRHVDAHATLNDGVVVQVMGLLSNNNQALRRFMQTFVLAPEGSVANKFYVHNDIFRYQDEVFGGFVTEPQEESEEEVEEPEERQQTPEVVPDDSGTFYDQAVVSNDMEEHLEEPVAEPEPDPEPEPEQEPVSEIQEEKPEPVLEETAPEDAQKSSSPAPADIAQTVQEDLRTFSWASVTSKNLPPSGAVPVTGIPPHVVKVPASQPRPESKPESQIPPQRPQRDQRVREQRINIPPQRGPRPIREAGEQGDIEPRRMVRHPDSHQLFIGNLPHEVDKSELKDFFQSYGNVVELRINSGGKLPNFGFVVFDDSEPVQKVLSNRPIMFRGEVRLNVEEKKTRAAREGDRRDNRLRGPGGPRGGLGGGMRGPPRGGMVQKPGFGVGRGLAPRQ
Method: RNA Bind-n-Seq
Form: RNA
Sample: in vitro
Tested at: 200 nM
Setting: whole 134-nt RNA, ends assumed
Together with: 150 mM LiCl
Baseline: input library
Direction: higher = stronger binding
Each molecule: 7-deaza-guanosine replaces G
Shared flanks, not repeated: GGGAGUUCUACAGUCCGACGAUC … UGGAAUUCUCGGGUGUCAAGG
`CACAGACAACACGCACCCACACAGACACAGAGGGAAGGGGUUGGGAUGGGGACAGGGUGCACAGCAGGGCGGGGUAGGACCCCAGAAACU` has a log2 enrichment of -1.39.
The log2 enrichment of `AAGUCCUGUGCUACACAUCGUAUGUACCGAAUCGGGCCCCGGGCCCCGGGCCCCGGGAAAGUAUUAUGUUACGCCGUUCGGAUCUGCACU` is reported as -2.02.
With `UGGCCCUGGUGACAUGCGGGGAGGAAGAGGUGGCCUCAUGGAUCGUGGUGGUCCCGGUGGAAUGUUCAGAGGUGGCCGUGGUGGAGACAG` the log2 enrichment was -0.00738.
`UGAUCAGCAAAGCCAAGAUGAGCCUUUGAGAAGCAGAAAAGUGUUUGUGGGGCGCUGUACAGAGGACAUGACUGAGGAUGAGCUGCGGGA` has a log2 enrichment of -1.37.
`UAACUUUAGAGGAGGAUCUGAUGGAUAUGGCAGUGGACGUGGAUUUGGGGAUGGCUAUAAUGGGUAUGGAGGAGGACCUGGAGGUGGCAU` has a log2 enrichment of -0.0197.
`UCAAGUCCUGUGCUACACAUCGUAUGUACCGAAUCGGAGGUUUUUGGUUUUUGGAAAGUAUUAUGUUACGCCGUUCGGAUCUGCACUUCC` has a log2 enrichment of -0.463.
`CAAGUCCUGUGCUACACAUCGUAUGUACCGAAUCGGCCCGGGGCCCGGGCCCGGGAAAGUAUUAUGUUACGCCGUUCGGAUCUGCACUUC` has a log2 enrichment of -1.25.
`CCUGUGCUACACAUCGUAUGUACCGAAUCGGGCCCCCCCGGCCCCCCCGGGCCCCCCCGGGAAAGUAUUAUGUUACGCCGUUCGGAUCUG` gave a log2 enrichment of 0.174.
With `GCAGGAAGUAAAAACAAAUGGAAAUGCUUCGGAUAGUGGCAGGGGUGGGGGUUGCUAAGGAAAGGGUGGGAUGGCAGUGGGUAAAGAGUU` the log2 enrichment was 0.253.
With `CACAGACAACACGCACCCAAACAGACACAGAGGGAAGGGGUUGGGAUGGGGACAGGGUGCACAGCAGGGCGGGGUAGGACCCCAGCCCCU` the log2 enrichment was 0.148.
`CUCAAGUCCUGUGCUACACAUCGUAUGUACCGAAUCGGCGGGGCGGGGCGGGGAAAGUAUUAUGUUACGCCGUUCGGAUCUGCACUUCCA` gave a log2 enrichment of 0.27.

Set 2
Target: Interferon regulatory factor 5, full length, phosphomimetic (IRF5, Homo sapiens, UniProt Q13568-2, residues 1-514, K96S/S451D/S453D/S456D/S462D)
Method: protein-binding microarray
Form: double-stranded DNA, one strand shown
Sample: in vitro
Tested at: 250 nM
Setting: 60-bp whole probe
Together with: salmon DNA 0.4 mg/ml
Baseline: random background probes
Direction: higher = stronger binding
Shared flanks, not repeated: GCCTAGCAC … GTCTTGATTCGCTTGACGCTGCTG
For `TTAGGTTTCGGAGTGGGTTAGTGCTAG`, the log fluorescence was 5.16 z-score.
For `TTAGGTATCCTACTGCTTCAGTGCTAG`, the log fluorescence was -0.144 z-score.
For `GACGATTTCGGTTCCGAGACGTGCTAG`, the log fluorescence was 6.78 z-score.
`AGTATTACCTCATCTTTCCCTGTGCTA` has a log fluorescence of 0.796 z-score.
`CTAGGTATCGGGACTGGGTTAGTGCTA` has a log fluorescence of 0.935 z-score.
`TCATCTCTGCTTGTATCACTGTGCTAG` gave a log fluorescence of 1.07 z-score.
For `GACGGTTCCCTTTTGCTGACGTGCTAG`, the log fluorescence was 0.373 z-score.
The log fluorescence of `GATTTTTTTCATATATATATGTGCTAG` is reported as 2.29 z-score.
With `GCCGGACTGGACTATCGGGACGTGCTA` the log fluorescence was 0.681 z-score.
With `GACGGATTGCTTCTCCTGACGTGCTAG` the log fluorescence was -0.163 z-score.
The log fluorescence of `TTAGTTTTCAGTTTCGATTAGTGCTAG` is reported as 10.3 z-score.
For `TCATCTTTCACTGCTCCAACTGTGCTA`, the log fluorescence was 3.41 z-score.

Set 3
Target: RING finger protein unkempt homolog, zinc fingers 1-6, SBP tag (UNK, Homo sapiens, UniProt Q9C0B0, residues 30-357)
Chain of UniProt Q9C0B0 (30-357, looked up): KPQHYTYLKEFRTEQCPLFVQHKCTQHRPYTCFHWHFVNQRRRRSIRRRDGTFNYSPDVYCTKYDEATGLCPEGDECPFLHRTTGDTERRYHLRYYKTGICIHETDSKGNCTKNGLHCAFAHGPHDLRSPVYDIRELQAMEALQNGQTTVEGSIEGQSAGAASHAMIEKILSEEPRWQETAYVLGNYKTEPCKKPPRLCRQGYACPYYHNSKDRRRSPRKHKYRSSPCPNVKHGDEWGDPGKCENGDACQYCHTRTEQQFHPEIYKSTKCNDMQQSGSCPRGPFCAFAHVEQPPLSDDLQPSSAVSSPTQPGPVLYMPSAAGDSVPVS
Method: RNA Bind-n-Seq
Form: RNA
Sample: in vitro
Tested at: 100 nM
Setting: RNA with constant flanks, vertebrate orthologous sites, ends assumed
Baseline: input RNA pool
Direction: higher = stronger binding
Shared flanks, not repeated: GGGAGUUCUACAGUCCGACGAUC … CAACAGAGGAUUGAGCAUCA
The bound/input enrichment of `AAAUUUAUUUCAUGCCCUGGACUCCCUACCGUACUGAUACUUUGAUAGAAUAUGCUUCUUUAGAAGAUUUCCAAAACAGUCGCCAAACAACAACAUAUAAACUUCCAAAUCGGGUAGAUG` is reported as 1.08 ratio.
For `GAUCAAUAGGAUUACAUAAUAUUAAAGUUGCAGUUGAACAGAUAUCCCAGUAUGUGUUGAUAGUUACUAACGGAAUUAUAGCUGGUAUUGCCUUGUAUUUAUAGCCCUUUUUCAGGUUUC`, the bound/input enrichment was 1.28 ratio.
The bound/input enrichment of `GCCCACCCAGCUCACACCAGCAGCUUGCUCUCACAGUGCACAGCUUACAAAGGAACAGUCUCGUGGGAUUUUUAUUUUAAUUUAAAACCUGCUUUUCCCAAAACUGAUCAAGAAGCUACG` is reported as 0.492 ratio.
With `UGCAUUAUUUGACCAGAGUGGAGGUGACAGAGUUUGAAGACAUCAAAUCAGGUUACAGAAUAGAUUUUUAUUUUGAUGAGAAUCCAUAUUUUGAAAAUAAAGUUCUCUCCAAAGAGUUUC` the bound/input enrichment was 0.667 ratio.
`CAACGUGUUCUAGCUUGUGAUCCUUCAAAGACAGACGGGUUAUGCGUUAAUUCUAGGUACUAGAAAUGUUCACUUCUCUCUUUCCACUGAUCAGAGAAACAGGCAUCAAAAACAGAAAUA` has a bound/input enrichment of 0.569 ratio.
With `UGCAAACUUCUCCUUAAACUGGUAUUGUCAGACAAUAGGAAGACUUUGUUUUUUUCACAGUUUAGUGCCUGGUUUCUACAUGGAAGACUAAACUCAUGCUUAUAGCUAAAUGUGGUCUUU` the bound/input enrichment was 0.175 ratio.
With `GUCCUUUCGCACGGUUCCCGGCCAGGGUCGAGGACCGGAUGUUUCACUGAGGACCCGCGUUUCAAACAGUUUUUUAAAUUGUUGUACAGGAAGAGAUGUGACGAAAACAGCAUCUCGAAG` the bound/input enrichment was 0.203 ratio.
The bound/input enrichment of `UCCUCAACCUGUUCUAGCUUGUGAUCCUUCAAAGUUGGGUCACACAUUAGUGCUAGAUACUAGAAAUUUUCACUUUUCCAUUGAUCAGAGAGACAGACAUUAAAAACAAAAAUAAAGGAA` is reported as 2.04 ratio.
`UUUUUAAAGUUUUUUUUAAUUUAAUUUUUUCCUUUUGGGGAUACAGUUUGCUCUACCAAAUAGUGAUCGUAACAAAUUGAUCUGUUUUGGAUGUUGCUAUAGUGACAUGCAGUUAUAUAU` has a bound/input enrichment of 1.38 ratio.

Further values, each from its own experiment
The fold induction of `PhoQ, residues 284 288 289 292 302 303 HSSMNL` is reported as 17.4 (PhoP, residues 12 14 15 18 19 NQCAL (Escherichia coli, UniProt P23836); Sort-seq, measured: YFP reporter; E. coli; PhoQ-PhoP variant library, together with: 10 µM Mg2+; baseline: high Mg2+ state, higher = stronger signaling).

Excerpt of the above (set 1):
`CAAGUCCUGUGCUACACAUCGUAUGUACCGAAUCGGCCCGGGGCCCGGGCCCGGGAAAGUAUUAUGUUACGCCGUUCGGAUCUGCACUUC` has a log2 enrichment of -1.25.
`CCUGUGCUACACAUCGUAUGUACCGAAUCGGGCCCCCCCGGCCCCCCCGGGCCCCCCCGGGAAAGUAUUAUGUUACGCCGUUCGGAUCUG` gave a log2 enrichment of 0.174.
With `GCAGGAAGUAAAAACAAAUGGAAAUGCUUCGGAUAGUGGCAGGGGUGGGGGUUGCUAAGGAAAGGGUGGGAUGGCAGUGGGUAAAGAGUU` the log2 enrichment was 0.253.
With `CACAGACAACACGCACCCAAACAGACACAGAGGGAAGGGGUUGGGAUGGGGACAGGGUGCACAGCAGGGCGGGGUAGGACCCCAGCCCCU` the log2 enrichment was 0.148.
